Measured values from different studies.
Numbered parts are unrelated; each lists some results of a single study. Substitutions count along the parent as printed.
Chain of UniProt O15111 (whole entry, looked up): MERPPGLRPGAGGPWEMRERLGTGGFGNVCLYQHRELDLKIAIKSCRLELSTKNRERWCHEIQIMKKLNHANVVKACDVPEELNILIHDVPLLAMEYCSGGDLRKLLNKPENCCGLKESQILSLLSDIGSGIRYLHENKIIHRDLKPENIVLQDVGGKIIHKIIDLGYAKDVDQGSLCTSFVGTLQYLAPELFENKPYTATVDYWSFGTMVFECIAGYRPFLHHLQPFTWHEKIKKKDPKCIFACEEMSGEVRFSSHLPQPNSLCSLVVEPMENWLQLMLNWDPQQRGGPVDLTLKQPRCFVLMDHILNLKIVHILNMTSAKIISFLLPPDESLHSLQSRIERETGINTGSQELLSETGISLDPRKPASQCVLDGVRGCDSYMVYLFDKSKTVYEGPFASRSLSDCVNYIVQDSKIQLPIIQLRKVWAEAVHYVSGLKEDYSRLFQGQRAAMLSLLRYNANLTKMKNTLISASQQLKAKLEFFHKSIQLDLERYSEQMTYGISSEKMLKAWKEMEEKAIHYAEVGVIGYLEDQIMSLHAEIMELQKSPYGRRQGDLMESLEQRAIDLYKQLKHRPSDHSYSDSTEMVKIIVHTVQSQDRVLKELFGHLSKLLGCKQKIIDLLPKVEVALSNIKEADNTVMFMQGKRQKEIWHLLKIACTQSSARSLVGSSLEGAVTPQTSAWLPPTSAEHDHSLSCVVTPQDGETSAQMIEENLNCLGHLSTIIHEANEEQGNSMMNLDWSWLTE
Chain of UniProt P61075 (whole entry, looked up): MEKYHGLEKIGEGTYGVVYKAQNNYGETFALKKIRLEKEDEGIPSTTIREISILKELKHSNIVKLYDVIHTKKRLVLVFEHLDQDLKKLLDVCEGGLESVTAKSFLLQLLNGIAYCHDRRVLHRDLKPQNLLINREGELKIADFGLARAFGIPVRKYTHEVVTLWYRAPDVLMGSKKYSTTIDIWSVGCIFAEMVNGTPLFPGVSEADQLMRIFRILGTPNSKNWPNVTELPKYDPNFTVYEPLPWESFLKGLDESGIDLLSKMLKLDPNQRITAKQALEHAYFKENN

Series 1 — effect on: peptide-MHC binding; form: peptide; concentration: concentration not given
Target: HLA class I histocompatibility antigen, A alpha chain, allele A*80:01 (Homo sapiens, UniProt P04439)
Sequence	binding
FLSFASLFL	inactive
HQFTSNPEV	inactive
HTVGLGQGY	inactive
TPSHYSGNI	inactive
EKDSNHNVL	inactive
EKLKKKSAF	inactive
FTENGPWMY	inactive
ISSGETRSF	inactive

Series 2 — target: CCNB2, cyclin fold, Cln2 fusion (human); method: yeast growth competition, sequencing; sample: yeast; setting: weak parent motif; relative to: not given; reading: higher = stronger binding; starting sequence: viral docking peptide; KGVKRKLFAEDSS
Change	normalised enrichment score
KGVKRWLFAEDSS [K6W]	-0.107
KGVKRKLFAEDGS [S12G]	0.56
KDVKRKLFAEDSS [G2D]	1.36
KGDKRKLFAEDSS [V3D]	0.0483
KGWKRKLFAEDSS [V3W]	-0.0823
KGVKRKLGAEDSS [F8G]	0.802
KGPKRKLFAEDSS [V3P]	0.615
KGVKRKAFAEDSS [L7A]	0.097

Other studies, line by line — effect on: cell-free assay
Compound	target	assay	conditions	quantity	value
O=c1[nH]c2ccccc2n1C1CCN(Cc2ccc(-c3[nH]c4cc5ncnc5cc4nc3-c3ccccc3)cc2)CC1	Inhibitor of nuclear factor kappa-B kinase subunit alpha (CHUK, Homo sapiens, UniProt O15111)	–	0.5 µM	remaining signal	90.1%
O=C(NCc1ncc(C(F)(F)F)cc1Cl)c1ccc2c(c1)C1(CCS(=O)(=O)CC1)[C@H](C1CC1)N2S(=O)(=O)c1ccc(F)cc1	Cyclin-dependent kinase 2 homolog (CRK2, Plasmodium falciparum, UniProt P61075)	competition with immobilised ligand	1 µM	remaining binding	94%

Some of these lines once more (series 2):
Change	normalised enrichment score
KGVKRWLFAEDSS [K6W]	-0.107
KGVKRKLFAEDGS [S12G]	0.56
